Measured values collected from several papers.
A part holds a random share of what one study measured. Changes are numbered by the printed parent chain.
Chain of UniProt Q13404 (whole entry, looked up): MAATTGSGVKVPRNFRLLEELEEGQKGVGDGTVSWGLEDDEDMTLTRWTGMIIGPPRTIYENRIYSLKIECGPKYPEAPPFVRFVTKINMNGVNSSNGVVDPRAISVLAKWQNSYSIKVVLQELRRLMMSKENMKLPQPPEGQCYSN
Chain of UniProt Q96LR5 (whole entry, looked up): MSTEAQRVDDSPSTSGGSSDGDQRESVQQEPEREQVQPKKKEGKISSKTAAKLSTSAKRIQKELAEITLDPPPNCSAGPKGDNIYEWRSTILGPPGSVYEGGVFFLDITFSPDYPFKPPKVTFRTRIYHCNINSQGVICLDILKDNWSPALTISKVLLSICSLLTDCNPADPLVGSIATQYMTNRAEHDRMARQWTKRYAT
Chain of UniProt P61077 (whole entry, looked up): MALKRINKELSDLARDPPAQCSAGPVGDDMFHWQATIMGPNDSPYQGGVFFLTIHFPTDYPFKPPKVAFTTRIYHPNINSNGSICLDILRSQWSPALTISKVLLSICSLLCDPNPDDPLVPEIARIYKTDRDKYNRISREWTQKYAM
Chain of UniProt P60604 (whole entry, looked up): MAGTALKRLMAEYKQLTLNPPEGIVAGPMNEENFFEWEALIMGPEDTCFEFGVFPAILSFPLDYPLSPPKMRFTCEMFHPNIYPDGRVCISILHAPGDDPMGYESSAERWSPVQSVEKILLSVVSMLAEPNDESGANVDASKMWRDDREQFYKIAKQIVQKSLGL

Study 1
Target: CCNF, cyclin fold, Cln2 fusion (human)
Method: yeast growth competition, sequencing
Matrix: yeast
Setting: strong parent motif
Reference: not given
Reading: higher = stronger binding
Parent: CCP110 docking peptide (human); EKVKRRLDLDIDG
Substitution | normalised enrichment score
V3A | 4.82
E1A | 8.1
G13A | 6.33
R5K | 4.01
D12A | 6.37
I11A | 5.18
L7A | 0.0662

Study 2
Target: ABI1, truncated, D143A, DHFR fusion (Arabidopsis thaliana)
Method: DHFR PCA, deep sequencing
Matrix: yeast
Setting: methotrexate growth selection, single substitutions
Together with: (+)-ABA 200 µM
Reference: wild-type fitted maximum
Reading: higher = stronger binding
Parent: PYL1, truncated, DHFR fusion (Arabidopsis thaliana); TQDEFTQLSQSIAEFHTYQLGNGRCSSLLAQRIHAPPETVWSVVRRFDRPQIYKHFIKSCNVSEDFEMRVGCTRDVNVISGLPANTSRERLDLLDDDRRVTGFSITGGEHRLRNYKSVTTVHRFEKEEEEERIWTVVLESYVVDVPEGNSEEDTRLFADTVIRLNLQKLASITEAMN; partner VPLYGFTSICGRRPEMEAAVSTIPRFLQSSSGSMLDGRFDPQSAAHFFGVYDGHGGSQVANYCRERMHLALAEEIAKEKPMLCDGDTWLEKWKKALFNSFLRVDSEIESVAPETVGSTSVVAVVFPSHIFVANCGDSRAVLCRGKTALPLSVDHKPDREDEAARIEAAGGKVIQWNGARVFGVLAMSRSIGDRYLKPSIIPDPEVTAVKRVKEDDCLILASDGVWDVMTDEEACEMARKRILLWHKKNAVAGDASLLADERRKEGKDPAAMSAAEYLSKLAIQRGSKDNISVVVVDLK
Substitution | relative binding score [%]
S59E | 102
L156R | 82
F124Y | 109
T73E | 103
D48P | 32.1
L82R | 9.62
F103D | -2.41
E151N | 87.9
G148M | 77
V145S | 57.2
R74K | 1.08
F157M | 83
E139K | 48.2
N177M | 116

Study 3
Target: RING finger protein unkempt homolog, zinc fingers 1-6, GST-SBP tag (UNK, Homo sapiens, UniProt Q9C0B0, residues 30-357)
Method: RNA Bind-n-Seq
Molecule type: RNA
Matrix: in vitro
Tested at: not given
Setting: RNA with constant flanks, human and mouse sites, ends assumed
Reference: input RNA pool
Reading: higher = stronger binding
All sequences stand within: GGGAGUUCUACAGUCCGACGAUC … CAACAGAGGAUUGAGCAUCA
Target sequence (chain): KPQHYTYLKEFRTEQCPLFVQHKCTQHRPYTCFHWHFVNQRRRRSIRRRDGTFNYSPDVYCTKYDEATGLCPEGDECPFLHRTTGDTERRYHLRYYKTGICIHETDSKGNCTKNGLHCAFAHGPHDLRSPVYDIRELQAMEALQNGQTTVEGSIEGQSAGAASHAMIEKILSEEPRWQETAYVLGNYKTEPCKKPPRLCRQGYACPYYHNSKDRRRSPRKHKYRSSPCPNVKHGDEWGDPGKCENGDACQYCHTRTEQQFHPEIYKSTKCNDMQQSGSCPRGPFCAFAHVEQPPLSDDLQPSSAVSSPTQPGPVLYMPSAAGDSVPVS
Sequence | bound/input enrichment [ratio]
CAGAAGGAGCACGCAGCUAUCAUUCUUUGGAGCACGGCAUCUUGGAAACAAGUGCAGAGUCUUGCUUUCCACACUCUGACUGUCACACAGAUGACAUUCUCACCUGAUGACAAGUUCUUA | 0.0814
UGUGUCCACAUAUUUGUCCAUUUGUCUGUGUACAAUCAGUCCUGGUGAUCACAUGGACUAUAUAGUCCACAUCUCUGUAUCUUGCUGGAAAGAACCCAAAGGAGCAUCGUAUGGACACUU | 0.266
GAGCUGGGAUACAAGCAAGAAAGAUCUGACUGAAUAUUUGUCUCGAUUUGGGGAAGUGGUAGACUGCACAAUUAAAACAGACCCAGUCACGGGAAGAUCAAGAGGAUUUGGAUUUGUGCU | 0.339
CGGCUGUCUCCCUCGGCAGCCACCCCAUUCUUCCUGCUGUCCGGCCUGUGUGCUUUCUUUUUUUAUUUCAAACGGACAUUGUAAAAGAAAACAAACUACCUUCUGUUCUAAAGGAUACUG | 0.43
AUCACUUUGACCCAGAUUGUGUGACAUACACCUGAGAGGAAUUGAGGGAGUAUUGGUGUCUAGGUUGUCAUGUUUCUGUUUUGUGACACAGUGGAUGGAAAGGUUUGUCCUCUUCCUACU | 0.126
AAUUUUCUUACUGGCCAGAGUUCUUGGUGGAGAAGUUGCAUAUGGCCAAGUCCUUGGAGUUAUAGGAUAUUCAUUACUUCCUCUCAUUGUAAUAGCCCCUGUACUUUUGGUGGUUGGAUC | 0.754
UCUGACCUACACACACACACACACUAAAUGUUUUAUAAAAAAAAAAAAAAAAAAAAGCCAGAGGUGGUGGCAUACAUCUUUAAUCCCAUCACUUAGGAGGCAGAGGCAGAUGGAUCUCUU | 6.12
UUGUUUAUUUUAUAUUUGUGUUUUAAGUAAUUUGCAUUGGCUGUUUAUAUUUUCCUUAUAUUUUAAAUAAUCUCCGCUUGGAAGGACUUUGGAAGUGUAUGUGAGAAGUCCUUUCCAUCU | 1.8
AGAGUGGUUGUGGAACCUGUUGGCCCAGUUGGUUUCAAGCCAGAGACAUUCAGAAAGUUUUUAGCUCUAUAUUUGCAUGGUGCUGCGUGAGCGGAGGACCCCUCUGAAUCCUGAAACCCC | 0.236
UUGCUCUCUGAAGUAGACUAGACUGUGCUGUCCAUGAGGAAUGGGUGUGCAUGUGCUUGUCCUAGUGCGUCCCGCUUCUGCAUCGCAGCUGCAGGCCUCCCUCUGGCGGCUGUGUCGCCA | 0.0795
GUAUUUAAGUUUGCUGUAGAUUGUGUGUGUGUGUGCUAAGUAAAAGUUCCAUGAUUCACAAUUUUAGUAUUAACCCAUGUUGCAAAAGCUGUUACUGGCCAACAGAUUGUAAUGAUGUGU | 3.57

Study 4
Molecule: KPDKMEETLTCIICQDLLHDCVSLQPCMHTFCAACYSGWMERSSLCPTCRCPVERICKNH (CHFR RING domain (UniProt Q96EP1))
Method: yeast two-hybrid
Matrix: yeast
Setting: mostly zero background
Reference: not given
Reading: higher = stronger interaction
target | lacZ reporter activity
UBE2D3 UBC core domain (UniProt P61077) | 9700
UBE2V1 UBC core domain (UniProt Q13404) | 0
UBE2E2 UBC core domain (UniProt Q96LR5) | 0
UBE2G2 UBC core domain (UniProt P60604) | 9470

Study 5
Target: Interferon regulatory factor 3, full length, phosphomimetic (IRF3, Homo sapiens, UniProt Q14653, residues 1-427, S386D/S396D/S398D/S402D/T404D/S405D)
Method: protein-binding microarray
Molecule type: double-stranded DNA, one strand shown
Matrix: in vitro
Tested at: 2540 nM top
Setting: 60-bp whole probe
Together with: salmon DNA 0.4 mg/ml
Reference: random background probes
Reading: higher = stronger binding
All sequences stand within: GCCTAGCAC … GTCTTGATTCGCTTGACGCTGCTG
Construct (chain): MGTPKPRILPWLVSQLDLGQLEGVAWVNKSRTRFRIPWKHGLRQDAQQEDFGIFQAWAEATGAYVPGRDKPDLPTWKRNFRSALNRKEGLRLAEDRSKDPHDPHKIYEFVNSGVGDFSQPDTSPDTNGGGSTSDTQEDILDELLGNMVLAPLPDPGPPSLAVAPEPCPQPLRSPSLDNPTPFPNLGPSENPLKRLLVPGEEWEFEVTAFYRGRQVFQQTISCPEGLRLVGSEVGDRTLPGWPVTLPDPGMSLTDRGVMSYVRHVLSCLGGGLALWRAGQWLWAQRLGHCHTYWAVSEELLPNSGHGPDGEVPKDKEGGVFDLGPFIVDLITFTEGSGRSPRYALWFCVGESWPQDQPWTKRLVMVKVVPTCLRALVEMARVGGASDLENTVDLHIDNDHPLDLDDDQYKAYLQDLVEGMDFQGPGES
Sequence | fitted relative affinity [z-score]
TCAGCTTTTTAGATCGTACTGTGCTAG | 0.566
TCAATTTTGTGTTTTCAACTGTGCTAG | 0.675
TTAGATTTCAATCTCGATTAGTGCTAG | 2.02
TTAGGACTGGGTCGCGGTTAGTGCTAG | -0.786
GGATGAGTCACTTCTGGTGCTGTGCTA | -0.236
TTTGGTTTCGGGTTTCGGTTAGTGCTA | 6.86
CTCCCATTATATTTTAATCAGTGCTAG | 0.675
TGGTCTTTCCACTTTCTTTTGTGCTAG | 1.53
TCATTTTTCATTTTTTTACTGTGCTAG | 2.85
TCACGGCTCTAAACTCATACTGTGCTA | -0.579
TTAGGACCGGGGTTTCGGTTAGTGCTA | 2.5
TTCGATCTCAGACTGGATTAGTGCTAG | 0.479
TACATTTTCCAAATGCCCCTGTGCTAG | 3.12
TCACAGCTCCCTTTCTCACTGTGCTAG | 2.16
TATAATATATATATTGTTAGGTGCTAG | 0.234
GATGGTTCCGGTTTCGGGACGTGCTAG | 6.45

Study 6
Target: Histone acetyltransferase KAT6A, winged helix 1, GST fusion (KAT6A, Homo sapiens, UniProt Q92794, residues 1-85)
Method: protein binding microarray
Molecule type: double-stranded DNA, one strand shown
Matrix: in vitro
Tested at: not given
Setting: 8-mer, flanks averaged, mean of 2 arrays, mostly near background
Reference: not given
Reading: higher = stronger binding
Target sequence (chain): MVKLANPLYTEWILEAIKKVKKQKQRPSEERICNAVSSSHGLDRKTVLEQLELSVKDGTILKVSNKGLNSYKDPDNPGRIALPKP
Sequence | E-score
AACTAGGG | -0.0813
GTCACCTA | -0.107
CACTGCCC | -0.0394
GACTGGCA | -0.0317
CCCTAGAA | -0.0428
CGGTCAAG | 0.179
CCTCTGCA | -0.138
AGGAGGTA | -0.188
ATAGGAAG | -0.036
GCCAGTCC | 0.135
ATTCCTGC | -0.026
ACTGAACC | 0.0163
ATTTATGA | -0.154
CCAAGAGG | -0.217
ACTGGTGA | -0.0476
CGTACAGC | 0.158
AATTTCCG | 0.197
GGTTAATA | -0.0721
AACTCAGA | -0.213
ATACGATG | -0.177
CTTCCAGA | -0.212
CCGCGGCC | 0.455
CGCCGGGC | 0.457
ATCATTTG | -0.185
GGGATACA | -0.0856

Some of these lines once more (study 1):
Substitution | normalised enrichment score
R5K | 4.01
L7A | 0.0662
G13A | 6.33
D12A | 6.37
